Results of several laboratories.
Each numbered part is a random draw from the data of one study; scales do not carry over between parts. Positions count from the first letter of the parent shown.

Block 1 — method: RNA Bind-n-Seq; molecule type: RNA; matrix: in vitro; concentration: 1 µM; notes: whole 134-nt RNA, ends assumed; with: 150 mM KCl; reference: input library; reading: higher = stronger binding
Target: Ras GTPase-activating protein-binding protein 1, RRM domain (G3BP1, Homo sapiens, UniProt Q13283)
Sequence of UniProt Q13283 (whole entry, looked up): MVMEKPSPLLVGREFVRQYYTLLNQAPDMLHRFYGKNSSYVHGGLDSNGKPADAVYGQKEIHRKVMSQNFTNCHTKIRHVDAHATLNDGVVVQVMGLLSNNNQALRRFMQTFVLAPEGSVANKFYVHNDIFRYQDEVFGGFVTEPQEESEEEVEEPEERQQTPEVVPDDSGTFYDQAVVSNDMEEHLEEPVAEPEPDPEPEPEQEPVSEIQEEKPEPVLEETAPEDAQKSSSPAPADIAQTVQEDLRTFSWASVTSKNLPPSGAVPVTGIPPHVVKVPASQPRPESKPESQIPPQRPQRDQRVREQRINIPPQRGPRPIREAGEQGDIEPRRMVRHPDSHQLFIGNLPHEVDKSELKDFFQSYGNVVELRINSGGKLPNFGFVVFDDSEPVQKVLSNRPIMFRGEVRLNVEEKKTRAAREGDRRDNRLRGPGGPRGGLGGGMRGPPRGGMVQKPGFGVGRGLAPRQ
Sequence	log2 enrichment
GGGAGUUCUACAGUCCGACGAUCUGGGAGGUGGAUUUUGUUUAUUUUUUUAGCUCACUUCCAGGGGUGGGAAUUUUUUUUUAAUAUGUGUCAUGAAUAAAGUUGUUUUUGAAAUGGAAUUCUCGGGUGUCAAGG	1.7
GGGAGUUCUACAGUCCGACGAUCUCCUGUGCUACACAUCGUAUGUACCGAAUCGGGGUGGGGUUUUUGGGGUUUUUUUGGGGAAAGUAUUAUGUUACGCCGUUCGGAUCUGCAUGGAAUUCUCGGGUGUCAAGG	0.686
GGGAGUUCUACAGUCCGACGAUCUCAUCCUUUUUAAAUUUUUUUUUUUUUUUUGAGACGGUCUCACUCUCACCCAGGCUGGAUUGCAGUGGUGUGAUCUCGACCAACUGCAACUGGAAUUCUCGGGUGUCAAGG	-2.15
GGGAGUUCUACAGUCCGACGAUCUCACUUUAGAGGAGGAUCUGAUGGAUAUGGCAGUGGACGUGGAUUUGGGGAUGGCUAUAAUGGGUAUGGAGGAGGACCUGGAGGUGGCAAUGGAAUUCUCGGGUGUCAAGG	-0.761
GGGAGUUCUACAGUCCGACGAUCUUGGACUUGGAGCAUCUGCUCAGUGAGUCUCCAGAAGGAAGUCCCUUCCGAGAUAUGGAUGAUGGAAGUGAUUCCCUUGGGGUGGGAUUGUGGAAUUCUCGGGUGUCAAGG	-0.316
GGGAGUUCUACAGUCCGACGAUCAGUCCUGUGCUACACAUCGUAUGUACCGAAUCGGGGUGGGGAAAAAAAGGGGUGGGGAAAGUAUUAUGUUACGCCGUUCGGAUCUGCACUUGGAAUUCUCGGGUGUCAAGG	0.732
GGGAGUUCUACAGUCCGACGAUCUAACUUUAGAGGAGGAUCUGAUGGAUAUGGCAGUGGACGUGGAUUUGGGGAUGGCUAUAAUGGGUAUGGAGGAGCACCUGGAGGUGGCAAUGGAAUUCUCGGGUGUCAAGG	-0.323
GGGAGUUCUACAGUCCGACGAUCUCAAGUCCUGUGCUACACAUCGUAUGUACCGAAUCGGGGAAGGGGAAGGGGAAGGAAAGUAUUAUGUUACGCCGUUCGGAUCUGCACUUCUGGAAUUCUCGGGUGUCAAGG	-0.119

Block 2 — target: CCNB1, cyclin fold, Cln2 fusion (human); method: yeast growth competition, sequencing; matrix: yeast; notes: weak parent motif; reference: not given; reading: higher = stronger binding
Starting sequence: GMNC docking peptide (human); KNAKRNLSSEFAN
Change	normalised enrichment score
KNAKRNLSAEFAN [S9A]	0.248
KNAQRNLSSEFAN [K4Q]	0.0738
KNATRNLSSEFAN [K4T]	0.0665
KNAKGNLSSEFAN [R5G]	0.196
KNAKRNLSSDFAN [E10D]	-0.134
KNAKRNLSSEFIN [A12I]	0.346

Block 3 — method: DHFR PCA, deep sequencing; matrix: yeast; with: (+)-ABA 0 µM; reference: wild-type fitted maximum; reading: higher = stronger binding
Target: ABI1, truncated, D143A, DHFR fusion (Arabidopsis thaliana)
Notes: methotrexate growth selection, single substitutions
Starting sequence: PYL1, truncated, DHFR fusion (Arabidopsis thaliana); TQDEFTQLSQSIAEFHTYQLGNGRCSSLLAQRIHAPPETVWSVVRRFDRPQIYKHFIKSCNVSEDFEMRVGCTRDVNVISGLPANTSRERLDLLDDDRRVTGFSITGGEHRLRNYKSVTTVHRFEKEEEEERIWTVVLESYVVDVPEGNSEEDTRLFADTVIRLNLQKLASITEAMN
Change	relative binding score [%]
L8I	7.1
F47C	1.73
R88S	6.27
S42N	23.7
T39K	9.9
S80V	4.57
L82W	44.9

Single results of other studies
Substance	target	test	system	setting	scale	endpoint	value
PhoQ, residues 284 288 289 292 302 303 SMMNNA	PhoP, residues 12 14 15 18 19 IQSYL (Escherichia coli, UniProt P23836)	Sort-seq, item: YFP reporter	E. coli	PhoQ-PhoP variant library, with: 10 µM Mg2+	reference: high Mg2+ state, higher = stronger signaling	fold induction	15.9

A few entries again (block 1):
Sequence	log2 enrichment
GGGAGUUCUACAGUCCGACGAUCUCACUUUAGAGGAGGAUCUGAUGGAUAUGGCAGUGGACGUGGAUUUGGGGAUGGCUAUAAUGGGUAUGGAGGAGGACCUGGAGGUGGCAAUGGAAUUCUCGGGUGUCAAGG	-0.761
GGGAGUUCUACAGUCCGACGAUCUUGGACUUGGAGCAUCUGCUCAGUGAGUCUCCAGAAGGAAGUCCCUUCCGAGAUAUGGAUGAUGGAAGUGAUUCCCUUGGGGUGGGAUUGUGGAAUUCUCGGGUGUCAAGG	-0.316
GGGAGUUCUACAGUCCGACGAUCAGUCCUGUGCUACACAUCGUAUGUACCGAAUCGGGGUGGGGAAAAAAAGGGGUGGGGAAAGUAUUAUGUUACGCCGUUCGGAUCUGCACUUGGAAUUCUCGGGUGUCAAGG	0.732
